Experimental data from different studies.
Compare with care: the assays were run in different laboratories. Numbers after ± are the reported error.
bglR: Beta-glucuronidase (bglR, Clostridium perfringens, UniProt Q8XP19)
Cacna1b with α2δ, β3 subunits: Voltage-dependent N-type calcium channel subunit alpha-1B, with α2δ, β3 subunits (Cacna1b, Rattus norvegicus, UniProt Q02294)

By UniProt entry, the sequences of proteins in these tests, tags left out. Where a name states a change or a piece, a line headed by the entry shows the natural chain unless it says otherwise. Residues count along the entry.
UniProt Q02294, whole entry, looked up: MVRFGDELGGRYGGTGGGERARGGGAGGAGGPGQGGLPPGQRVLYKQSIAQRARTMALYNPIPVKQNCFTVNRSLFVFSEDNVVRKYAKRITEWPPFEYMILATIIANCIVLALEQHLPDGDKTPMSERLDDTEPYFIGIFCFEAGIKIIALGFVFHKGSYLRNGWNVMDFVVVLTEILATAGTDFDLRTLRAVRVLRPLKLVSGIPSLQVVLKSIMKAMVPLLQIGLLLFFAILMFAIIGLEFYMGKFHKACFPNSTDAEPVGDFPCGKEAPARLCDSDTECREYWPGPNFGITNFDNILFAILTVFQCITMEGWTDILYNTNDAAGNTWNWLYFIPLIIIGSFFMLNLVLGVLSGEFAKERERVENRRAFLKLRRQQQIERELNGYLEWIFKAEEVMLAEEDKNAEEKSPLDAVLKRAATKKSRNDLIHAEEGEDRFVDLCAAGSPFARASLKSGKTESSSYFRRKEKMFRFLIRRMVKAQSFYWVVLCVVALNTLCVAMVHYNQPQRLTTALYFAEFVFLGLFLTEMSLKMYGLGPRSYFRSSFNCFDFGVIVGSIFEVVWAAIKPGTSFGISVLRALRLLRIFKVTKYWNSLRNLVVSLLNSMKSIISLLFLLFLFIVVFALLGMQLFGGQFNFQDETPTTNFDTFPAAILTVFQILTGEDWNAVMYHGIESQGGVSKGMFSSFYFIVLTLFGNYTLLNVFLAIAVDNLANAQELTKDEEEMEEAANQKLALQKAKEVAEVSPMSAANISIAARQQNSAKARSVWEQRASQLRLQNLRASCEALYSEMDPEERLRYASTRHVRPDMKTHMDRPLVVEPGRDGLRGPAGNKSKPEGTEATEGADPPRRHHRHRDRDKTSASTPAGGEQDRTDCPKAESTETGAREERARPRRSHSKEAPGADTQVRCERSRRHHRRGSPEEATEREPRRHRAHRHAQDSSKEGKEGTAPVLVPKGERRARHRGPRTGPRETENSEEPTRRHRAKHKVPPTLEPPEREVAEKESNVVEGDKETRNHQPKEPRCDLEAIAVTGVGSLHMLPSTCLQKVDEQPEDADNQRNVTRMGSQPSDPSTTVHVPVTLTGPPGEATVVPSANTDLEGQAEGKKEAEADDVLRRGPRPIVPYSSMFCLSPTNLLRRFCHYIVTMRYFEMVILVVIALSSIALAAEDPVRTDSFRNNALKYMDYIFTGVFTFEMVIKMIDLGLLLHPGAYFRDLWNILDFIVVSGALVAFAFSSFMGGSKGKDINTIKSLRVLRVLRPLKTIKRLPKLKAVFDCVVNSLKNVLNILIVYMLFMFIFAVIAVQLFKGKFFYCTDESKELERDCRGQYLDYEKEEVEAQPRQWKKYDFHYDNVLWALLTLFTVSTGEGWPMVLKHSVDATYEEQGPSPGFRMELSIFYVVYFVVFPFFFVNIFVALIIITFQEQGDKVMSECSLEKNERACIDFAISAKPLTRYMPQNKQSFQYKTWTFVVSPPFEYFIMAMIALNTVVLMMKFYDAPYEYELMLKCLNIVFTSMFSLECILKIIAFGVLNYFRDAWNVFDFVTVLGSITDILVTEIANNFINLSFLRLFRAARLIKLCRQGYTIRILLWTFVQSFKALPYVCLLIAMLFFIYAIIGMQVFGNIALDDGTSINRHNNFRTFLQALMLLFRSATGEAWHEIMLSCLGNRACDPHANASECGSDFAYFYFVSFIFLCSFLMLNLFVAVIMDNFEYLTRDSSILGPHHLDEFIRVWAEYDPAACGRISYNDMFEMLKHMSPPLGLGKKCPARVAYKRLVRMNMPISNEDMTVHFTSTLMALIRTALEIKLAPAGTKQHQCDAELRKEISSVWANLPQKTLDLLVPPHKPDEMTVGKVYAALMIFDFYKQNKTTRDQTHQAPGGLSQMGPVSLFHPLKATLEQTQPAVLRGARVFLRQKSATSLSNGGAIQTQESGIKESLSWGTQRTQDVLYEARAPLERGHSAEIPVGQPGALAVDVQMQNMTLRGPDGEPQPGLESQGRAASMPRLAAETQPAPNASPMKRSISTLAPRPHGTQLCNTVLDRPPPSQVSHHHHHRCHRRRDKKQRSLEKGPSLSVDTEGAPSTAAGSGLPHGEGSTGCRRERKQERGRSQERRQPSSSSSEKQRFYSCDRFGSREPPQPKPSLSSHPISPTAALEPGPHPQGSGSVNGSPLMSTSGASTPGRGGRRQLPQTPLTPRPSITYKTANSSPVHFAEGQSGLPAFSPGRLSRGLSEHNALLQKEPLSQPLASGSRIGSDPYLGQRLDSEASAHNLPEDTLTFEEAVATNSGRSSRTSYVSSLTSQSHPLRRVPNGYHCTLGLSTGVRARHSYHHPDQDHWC
UniProt Q9WTU3, whole entry: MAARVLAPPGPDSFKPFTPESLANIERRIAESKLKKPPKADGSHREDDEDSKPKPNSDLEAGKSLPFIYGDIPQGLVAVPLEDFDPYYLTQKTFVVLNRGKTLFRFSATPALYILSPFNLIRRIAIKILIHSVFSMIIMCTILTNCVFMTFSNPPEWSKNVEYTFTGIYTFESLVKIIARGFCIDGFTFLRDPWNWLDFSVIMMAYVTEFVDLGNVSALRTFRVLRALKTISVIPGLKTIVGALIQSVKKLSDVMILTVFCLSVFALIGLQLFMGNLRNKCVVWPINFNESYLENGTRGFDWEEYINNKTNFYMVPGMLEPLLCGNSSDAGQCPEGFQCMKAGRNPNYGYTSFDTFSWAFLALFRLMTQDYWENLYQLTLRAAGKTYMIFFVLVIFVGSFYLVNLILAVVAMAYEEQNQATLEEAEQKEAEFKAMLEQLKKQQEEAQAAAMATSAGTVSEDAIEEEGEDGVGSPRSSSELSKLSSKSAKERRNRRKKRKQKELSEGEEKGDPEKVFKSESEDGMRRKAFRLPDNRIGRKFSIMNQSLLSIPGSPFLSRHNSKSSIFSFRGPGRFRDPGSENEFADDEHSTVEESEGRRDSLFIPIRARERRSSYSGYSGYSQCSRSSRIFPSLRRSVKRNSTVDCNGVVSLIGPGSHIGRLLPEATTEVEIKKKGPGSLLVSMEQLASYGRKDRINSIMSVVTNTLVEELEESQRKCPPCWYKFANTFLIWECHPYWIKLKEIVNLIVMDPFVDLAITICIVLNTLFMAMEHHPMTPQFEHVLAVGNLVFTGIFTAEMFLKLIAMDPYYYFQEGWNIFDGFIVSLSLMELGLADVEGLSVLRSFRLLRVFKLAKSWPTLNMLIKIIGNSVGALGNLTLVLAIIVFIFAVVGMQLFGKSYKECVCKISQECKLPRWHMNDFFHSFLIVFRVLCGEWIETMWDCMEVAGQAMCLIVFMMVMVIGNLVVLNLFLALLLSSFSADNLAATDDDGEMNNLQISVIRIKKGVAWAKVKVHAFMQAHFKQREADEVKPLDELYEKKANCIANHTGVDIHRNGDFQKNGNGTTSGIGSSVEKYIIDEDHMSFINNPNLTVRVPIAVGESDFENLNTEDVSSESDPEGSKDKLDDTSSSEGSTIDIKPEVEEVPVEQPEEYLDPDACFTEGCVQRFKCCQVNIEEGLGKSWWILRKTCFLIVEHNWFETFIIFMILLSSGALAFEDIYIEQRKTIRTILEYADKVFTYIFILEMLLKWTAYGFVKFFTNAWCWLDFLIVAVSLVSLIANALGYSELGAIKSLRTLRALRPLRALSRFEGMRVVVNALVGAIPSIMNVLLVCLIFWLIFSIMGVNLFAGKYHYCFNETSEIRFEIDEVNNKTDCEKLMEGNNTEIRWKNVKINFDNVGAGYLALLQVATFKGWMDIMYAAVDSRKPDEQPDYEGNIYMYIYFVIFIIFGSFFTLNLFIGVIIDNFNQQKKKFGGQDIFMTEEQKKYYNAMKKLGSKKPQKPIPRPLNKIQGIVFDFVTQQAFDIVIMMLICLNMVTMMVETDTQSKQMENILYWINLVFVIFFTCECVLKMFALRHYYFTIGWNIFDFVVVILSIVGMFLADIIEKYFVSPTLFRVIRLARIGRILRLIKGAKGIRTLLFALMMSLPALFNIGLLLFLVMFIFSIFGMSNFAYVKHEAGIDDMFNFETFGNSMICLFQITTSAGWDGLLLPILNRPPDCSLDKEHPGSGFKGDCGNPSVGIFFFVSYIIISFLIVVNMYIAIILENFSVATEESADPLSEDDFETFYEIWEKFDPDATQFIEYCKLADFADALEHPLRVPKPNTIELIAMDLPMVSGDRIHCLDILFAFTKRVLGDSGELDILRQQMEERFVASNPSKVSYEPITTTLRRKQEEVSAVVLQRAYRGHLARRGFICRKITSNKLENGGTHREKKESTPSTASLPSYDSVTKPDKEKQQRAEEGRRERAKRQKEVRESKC
UniProt P15309, 33-386 limits assumed: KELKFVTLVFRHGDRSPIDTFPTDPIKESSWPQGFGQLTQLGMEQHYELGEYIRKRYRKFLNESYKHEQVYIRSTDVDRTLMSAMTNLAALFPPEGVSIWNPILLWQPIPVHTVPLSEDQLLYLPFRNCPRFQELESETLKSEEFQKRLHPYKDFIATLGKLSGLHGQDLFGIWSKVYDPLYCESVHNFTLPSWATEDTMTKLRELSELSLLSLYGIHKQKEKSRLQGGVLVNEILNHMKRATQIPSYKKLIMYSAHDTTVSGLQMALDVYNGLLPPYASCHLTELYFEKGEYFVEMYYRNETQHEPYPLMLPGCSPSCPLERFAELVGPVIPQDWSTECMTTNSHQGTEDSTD

`CC[C@H](C)[C@H](NC(=O)[C@H](C)NC(=O)[C@H](CCC(=O)O)NC(=O)[C@H](CCC(=O)O)NC(=O)[C@H](CC(C)C)NC(=O)[C@H](CCCCN)NC(=O)[C@H](CCCCN)NC(=O)[C@H](CCSC)NC(=O)[C@H](CCC(=O)O)NC(=O)[C@H](Cc1ccc(O)cc1)NC(=O)[C@H](CCC(=O)O)NC(=O)[C@H](CC(C)C)NC(=O)[C@H](CC(=O)O)NC(=O)[C@H](CC(C)C)NC(=O)[C@H](Cc1ccccc1)NC(=O)[C@@H](NC(=O)[C@@H](NC(=O)[C@H](CC(N)=O)NC(=O)[C@@H](NC(=O)[C@H](CCC(N)=O)NC(=O)[C@H](CC(=O)O)NC(=O)[C@H](CC(C)C)NC(=O)[C@@H](N)CO)[C@@H](C)CC)C(C)C)[C@@H](C)O)C(=O)N[C@@H](CCCCN)C(=O)N[C@@H](CCCCN)C(=O)N[C@@H](CC(C)C)C(=O)N[C@@H](CCC(=O)O)C(=O)N[C@@H](CCC(=O)O)C(=O)N[C@@H](CO)C(=O)N[C@@H](Cc1ccc(O)cc1)C(=O)N[C@H](C(=O)N[C@@H](CC(=O)O)C(=O)N[C@@H](CC(C)C)C(=O)N[C@@H](CCCCN)C(=O)N[C@@H](CCC(=O)O)C(=O)N[C@@H](CC(C)C)C(=O)O)[C@@H](C)CC` gave an IC50 of 146 nM (Spike glycoprotein, Beta variant (Severe acute respiratory syndrome coronavirus 2, UniProt P0DTC2); cell-cell fusion, inhibitor, luciferase fusion; 293T donor, Huh-7 target; 16 h, 37 °C).
For `CNc1nc(N2CCNCC2)c2sc3nc(-c4ccccc4)ccc3c2n1`, the IC50 was 90 ± 40 nM (bglR; enzyme activity, inhibitor).
`O=C(O)COc1c(SSc2cnn(-c3ccccc3)c(=O)c2OCC(=O)O)cnn(-c2ccccc2)c1=O` has an IC50 of 490 ± 190 nM (Sortase A (Bacillus anthracis str. H9401, UniProt P0DPQ5); inhibitor; Bacillus anthracis).
The IC50 of `CC[C@H](C)[C@H](NC(=O)[C@H](C)NC(=O)[C@H](CCC(=O)O)NC(=O)[C@H](CCC(=O)O)NC(=O)[C@H](CC(C)C)NC(=O)[C@H](CCCCN)NC(=O)[C@H](CCCCN)NC(=O)[C@H](CCSC)NC(=O)[C@H](CCC(=O)O)NC(=O)[C@H](Cc1ccc(O)cc1)NC(=O)[C@H](CCC(=O)O)NC(=O)[C@H](CC(C)C)NC(=O)[C@H](CC(=O)O)NC(=O)[C@H](CC(C)C)NC(=O)[C@H](Cc1ccccc1)NC(=O)[C@H](Cc1ccc(O)cc1)NC(=O)[C@@H](NC(=O)[C@H](CC(N)=O)NC(=O)[C@@H](NC(=O)[C@H](CCC(N)=O)NC(=O)[C@H](CC(=O)O)NC(=O)[C@H](CC(C)C)NC(=O)[C@@H](N)CO)[C@@H](C)CC)C(C)C)C(=O)N[C@@H](CCCCN)C(=O)N[C@@H](CCCCN)C(=O)N[C@@H](CC(C)C)C(=O)N[C@@H](CCC(=O)O)C(=O)N[C@@H](CCC(=O)O)C(=O)N[C@@H](C)C(=O)N[C@@H](Cc1ccc(O)cc1)C(=O)N[C@H](C(=O)N[C@@H](CC(=O)O)C(=O)N[C@@H](CC(C)C)C(=O)N[C@@H](CCCCN)C(=O)N[C@@H](CCC(=O)O)C(=O)N[C@@H](CC(C)C)C(=O)O)[C@@H](C)CC` is reported as 2030 nM (Spike glycoprotein (MERS-CoV, UniProt K9N5Q8); cell-cell fusion, inhibitor, luciferase fusion; 293T donor, Huh-7 target; 16 h, 37 °C, dual mutations).
`CC(=O)N[C@@H](CCCCN)C(=O)N[C@@H](Cc1c[nH]c2ccccc12)C(=O)N[C@H]1CCCCNC(=O)C[C@@H](C(=O)N[C@@H](CCCNC(=N)N)C(N)=O)NC(=O)[C@H](Cc2c[nH]cn2)NC(=O)[C@H](CC(=O)O)NC(=O)[C@H](CCCNC(=N)N)NC1=O` has an IC50 of 54300 ± 9000 nM (Sodium channel protein type 8 subunit alpha (Scn8a, Mus musculus, UniProt Q9WTU3); ion current, inhibitor, Hill equation fit; mouse channel).
With `N#Cc1ccccc1C[C@@H](N)C(=O)N[C@H](Cc1ccc(Cl)cc1Cl)C(=O)N[C@H](CC(=O)NCCc1c[nH]cn1)Cc1ccc(F)cc1` the IC50 was 300 nM (Replicase polyprotein 1ab, main protease (rep, Severe acute respiratory syndrome coronavirus 2, UniProt P0DTD1); enzyme activity, inhibitor).
`CC[C@H](C)[C@H](NC(=O)[C@H](C)NC(=O)[C@H](CCC(=O)O)NC(=O)[C@H](CCC(=O)O)NC(=O)[C@H](CC(C)C)NC(=O)[C@H](CCCCN)NC(=O)[C@H](CCCCN)NC(=O)[C@H](CCSC)NC(=O)[C@H](CCC(=O)O)NC(=O)[C@H](Cc1ccc(O)cc1)NC(=O)[C@H](CCC(=O)O)NC(=O)[C@H](CC(C)C)NC(=O)[C@H](CC(=O)O)NC(=O)[C@H](CC(C)C)NC(=O)[C@H](Cc1ccccc1)NC(=O)[C@H](Cc1ccccc1)NC(=O)[C@@H](NC(=O)[C@H](CC(N)=O)NC(=O)[C@@H](NC(=O)[C@H](CCC(N)=O)NC(=O)[C@H](CC(=O)O)NC(=O)[C@H](CC(C)C)NC(=O)[C@@H](N)CO)[C@@H](C)CC)C(C)C)C(=O)N[C@@H](CCCCN)C(=O)N[C@@H](CCCCN)C(=O)N[C@@H](CC(C)C)C(=O)N[C@@H](CCC(=O)O)C(=O)N[C@@H](CCC(=O)O)C(=O)N[C@@H](C)C(=O)N[C@@H](Cc1ccc(O)cc1)C(=O)N[C@H](C(=O)N[C@@H](CC(=O)O)C(=O)N[C@@H](CC(C)C)C(=O)N[C@@H](CCCCN)C(=O)N[C@@H](CCC(=O)O)C(=O)N[C@@H](CC(C)C)C(=O)O)[C@@H](C)CC` gave an IC50 of 2210 nM (Spike glycoprotein (MERS-CoV, UniProt K9N5Q8); cell-cell fusion, inhibitor, luciferase fusion; 293T donor, Huh-7 target; 16 h, 37 °C, dual mutations).
`C[C@@H](O)[C@@H]1NC(=O)[C@@H]2CSSC[C@H](N)C(=O)N[C@@H](CCCCN)C(=O)N[C@@H](CCCNC(=N)N)C(=O)N[C@@H](CCCCN)C(=O)NCC(=O)N[C@@H](CO)C(=O)N[C@@H](CO)C(=O)N[C@H]3CSSC[C@H](NC(=O)[C@H](CO)NC(=O)CNC1=O)C(=O)N[C@@H](CCCNC(=N)N)C(=O)N[C@@H](CO)C(=O)NCC(=O)N[C@@H](CCCCN)C(=O)N[C@H](C(N)=O)CSSC[C@H](NC(=O)[C@H](CC(=O)O)NC(=O)[C@H](Cc1ccc(O)cc1)NC(=O)[C@H](CO)NC(=O)[C@H]([C@@H](C)O)NC(=O)[C@H](CCCNC(=N)N)NC(=O)[C@H](CCCNC(=N)N)NC3=O)C(=O)N2` has an IC50 of 95 nM (Cacna1b with α2δ, β3 subunits; Ba2+ current, inhibitor, whole-cell patch clamp; HEK293 expressing α2δ and β3; 22 °C, with: Ba2+ 20 mM).
For `O=C(NCc1ccccc1)C1C(=O)N(O)C(=O)c2cc([N+](=O)[O-])ccc21` (centres unmarked), the IC50 was 13600 nM (Nucleoprotein, exonuclease domain (N, Machupo virus, UniProt P26578); inhibitor).
For `CC[C@H](C)[C@H](NC(=O)[C@H](C)NC(=O)[C@H](CCC(=O)O)NC(=O)[C@H](CCC(=O)O)NC(=O)[C@H](CC(C)C)NC(=O)[C@H](CCCCN)NC(=O)[C@H](CCCCN)NC(=O)[C@H](CCSC)NC(=O)[C@H](CCC(=O)O)NC(=O)[C@H](Cc1ccc(O)cc1)NC(=O)[C@H](CCC(=O)O)NC(=O)[C@H](CC(C)C)NC(=O)[C@H](CC(=O)O)NC(=O)[C@H](CC(C)C)NC(=O)[C@H](Cc1ccccc1)NC(=O)[C@@H](NC(=O)[C@@H](NC(=O)[C@H](CC(N)=O)NC(=O)[C@@H](NC(=O)[C@H](CCC(N)=O)NC(=O)[C@H](CC(=O)O)NC(=O)[C@H](CC(C)C)NC(=O)[C@H](CO)NC(=O)[C@H](CC(C)C)NC(=O)[C@H](CC(=O)O)NC(=O)[C@@H]1CCCN1C(=O)[C@H](C)N)[C@@H](C)CC)C(C)C)[C@@H](C)O)C(=O)N[C@@H](CCCCN)C(=O)N[C@@H](CCCCN)C(=O)N[C@@H](CC(C)C)C(=O)N[C@@H](CCC(=O)O)C(=O)N[C@@H](CCC(=O)O)C(=O)N[C@@H](CO)C(=O)N[C@@H](Cc1ccc(O)cc1)C(=O)N[C@H](C(=O)N[C@@H](CC(=O)O)C(=O)N[C@@H](CC(C)C)C(=O)N[C@@H](CCCCN)C(=O)N[C@@H](CCC(=O)O)C(=O)N[C@@H](CC(C)C)C(=O)O)[C@@H](C)CC`, the IC50 was 32.8 nM (Spike glycoprotein (Severe acute respiratory syndrome coronavirus, UniProt P59594); cell-cell fusion, inhibitor, luciferase fusion; 293T donor, Huh-7 target; 16 h, 37 °C).
For `Cc1ccc(-c2nnc3n2CC(CI)S3)cc1` (centres unmarked), the IC50 was 19300 nM (Prostatic acid phosphatase (ACP3, Homo sapiens, UniProt P15309); enzyme activity, inhibitor; pH 7.0, 1% DMSO, with: DiFMUP 59 µM).
The IC50 of `CC[C@H](C)[C@H](NC(=O)[C@H](C)NC(=O)[C@H](CCC(=O)O)NC(=O)[C@H](CCC(=O)O)NC(=O)[C@H](CC(C)C)NC(=O)[C@H](CCCCN)NC(=O)[C@H](CCCCN)NC(=O)[C@H](CCSC)NC(=O)[C@H](CCC(=O)O)NC(=O)[C@H](Cc1ccc(O)cc1)NC(=O)[C@H](CCC(=O)O)NC(=O)[C@H](CC(C)C)NC(=O)[C@H](CC(=O)O)NC(=O)[C@H](CC(C)C)NC(=O)[C@H](Cc1ccccc1)NC(=O)[C@@H](NC(=O)[C@@H](NC(=O)[C@H](CC(N)=O)NC(=O)[C@@H](NC(=O)[C@H](CCC(N)=O)NC(=O)[C@H](CC(=O)O)NC(=O)[C@H](CC(C)C)NC(=O)[C@@H](N)CO)[C@@H](C)CC)C(C)C)[C@@H](C)O)C(=O)N[C@@H](CCCCN)C(=O)N[C@@H](CCCCN)C(=O)N[C@@H](CC(C)C)C(=O)N[C@@H](CCC(=O)O)C(=O)N[C@@H](CCC(=O)O)C(=O)N[C@@H](C)C(=O)N[C@@H](Cc1ccc(O)cc1)C(=O)N[C@H](C(=O)N[C@@H](CC(=O)O)C(=O)N[C@@H](CC(C)C)C(=O)N[C@@H](CCCCN)C(=O)N[C@@H](CCC(=O)O)C(=O)N[C@@H](CC(C)C)C(=O)O)[C@@H](C)CC` is reported as 152 nM (Spike glycoprotein (Severe acute respiratory syndrome coronavirus, UniProt P59594); cell-cell fusion, inhibitor, luciferase fusion; 293T donor, Huh-7 target; 16 h, 37 °C).
The IC50 of `CC(=NNC(=S)N1CCC1)c1ccccn1` is reported as 400 ± 100 nM (Botulinum neurotoxin type A, light chain (Clostridium botulinum, UniProt P0DPI0)).
`CN1CCN(C(c2ccccc2)c2ccc(Cl)cc2)CC1` (centres unmarked) — result for IC50: “no inhibition” (Replicase polyprotein 1ab, nsp14 (rep, Severe acute respiratory syndrome-related coronavirus, UniProt P0C6X7); enzyme activity, inhibitor).
`CC(=O)c1nc2ccccc2n1Cc1ccc(Cl)cc1` gave an IC50 of > 100000 nM (Enoyl-[acyl-carrier-protein] reductase [NADH] (Francisella tularensis subsp. tularensis, UniProt Q5NGQ3)).
For `CNc1nc(N2CCNCC2)c2sc3nc(N4CCOCC4)ccc3c2n1`, the IC50 was 30 ± 8 nM (bglR; enzyme activity, inhibitor).
`CC(C)C[C@@H]1NC(=O)[C@H](CCCNC(=N)N)NC(=O)[C@H](CCCNC(=N)N)NC(=O)[C@@H]2CSSC[C@@H]3NC(=O)[C@H](CO)NC(=O)CNC(=O)[C@H]([C@@H](C)O)NC(=O)[C@H](CSSC[C@H](N)C(=O)N[C@@H](CCCCN)C(=O)N[C@@H](CCCNC(=N)N)C(=O)N[C@@H](CCCCN)C(=O)NCC(=O)N[C@@H](CO)C(=O)N[C@@H](CO)C(=O)N2)NC(=O)[C@H](CSSC[C@@H](C(N)=O)NC(=O)[C@H](CCCCN)NC(=O)CNC(=O)[C@H](CC(N)=O)NC(=O)[C@H](CCCNC(=N)N)NC3=O)NC(=O)[C@H](CC(=O)O)NC(=O)[C@H](Cc2ccc(O)cc2)NC(=O)[C@H](CO)NC1=O` has an IC50 of 68 nM (Cacna1b with α2δ, β3 subunits; Ba2+ current, inhibitor, whole-cell patch clamp; HEK293 expressing α2δ and β3; 22 °C, with: Ba2+ 20 mM).

Some of these lines once more:
For `O=C(NCc1ccccc1)C1C(=O)N(O)C(=O)c2cc([N+](=O)[O-])ccc21` (centres unmarked), the IC50 was 13600 nM (Nucleoprotein, exonuclease domain (N, Machupo virus, UniProt P26578); inhibitor).
